Published values gathered from unrelated publications.
Values joined by “and” are separate records of one study, mostly repeats; a detail may differ. ± gives the spread as reported.
MAOB: Amine oxidase [flavin-containing] B (MAOB, Homo sapiens, UniProt P27338)

The chains behind the UniProt entries cited, without tags or fusion partners. Where a name states a change or a piece, a line headed by the entry shows the natural chain unless it says otherwise. Residues count along the entry.
UniProt P27338, whole entry: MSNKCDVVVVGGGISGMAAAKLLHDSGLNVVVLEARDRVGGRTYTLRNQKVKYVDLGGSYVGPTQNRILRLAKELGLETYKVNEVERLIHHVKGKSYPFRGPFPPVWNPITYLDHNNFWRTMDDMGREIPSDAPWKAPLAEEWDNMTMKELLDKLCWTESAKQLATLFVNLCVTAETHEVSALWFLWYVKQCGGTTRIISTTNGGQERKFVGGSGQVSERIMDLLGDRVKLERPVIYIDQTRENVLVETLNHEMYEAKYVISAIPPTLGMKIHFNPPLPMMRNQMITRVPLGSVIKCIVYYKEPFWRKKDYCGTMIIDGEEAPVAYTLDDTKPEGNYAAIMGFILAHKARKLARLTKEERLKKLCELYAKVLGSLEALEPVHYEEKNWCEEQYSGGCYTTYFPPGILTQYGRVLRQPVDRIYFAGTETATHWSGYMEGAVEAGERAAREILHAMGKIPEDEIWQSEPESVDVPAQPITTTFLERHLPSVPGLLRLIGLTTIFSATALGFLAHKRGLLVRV
UniProt P49582, 23-502 limits assumed: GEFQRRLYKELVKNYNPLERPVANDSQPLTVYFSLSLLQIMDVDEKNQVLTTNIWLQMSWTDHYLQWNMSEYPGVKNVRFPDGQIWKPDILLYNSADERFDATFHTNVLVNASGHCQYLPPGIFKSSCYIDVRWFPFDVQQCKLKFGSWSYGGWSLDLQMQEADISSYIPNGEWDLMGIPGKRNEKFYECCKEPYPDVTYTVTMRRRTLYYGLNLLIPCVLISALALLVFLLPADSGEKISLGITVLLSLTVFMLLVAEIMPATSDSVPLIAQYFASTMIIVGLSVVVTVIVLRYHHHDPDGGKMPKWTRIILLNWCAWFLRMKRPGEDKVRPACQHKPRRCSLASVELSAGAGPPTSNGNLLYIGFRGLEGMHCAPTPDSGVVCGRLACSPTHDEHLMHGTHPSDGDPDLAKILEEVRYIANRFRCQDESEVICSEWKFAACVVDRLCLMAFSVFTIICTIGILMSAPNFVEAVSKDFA
UniProt P35372, whole entry: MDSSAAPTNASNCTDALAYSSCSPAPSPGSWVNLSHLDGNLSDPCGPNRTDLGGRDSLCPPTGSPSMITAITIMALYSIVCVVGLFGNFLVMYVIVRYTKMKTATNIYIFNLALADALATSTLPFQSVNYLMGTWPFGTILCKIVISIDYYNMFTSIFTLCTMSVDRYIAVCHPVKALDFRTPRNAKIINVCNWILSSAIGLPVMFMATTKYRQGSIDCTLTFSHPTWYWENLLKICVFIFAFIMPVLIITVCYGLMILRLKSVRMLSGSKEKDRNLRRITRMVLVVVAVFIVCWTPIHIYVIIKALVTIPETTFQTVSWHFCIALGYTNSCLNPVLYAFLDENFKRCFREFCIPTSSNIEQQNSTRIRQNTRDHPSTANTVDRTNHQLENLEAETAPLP
UniProt P22307, 425-547 limits assumed: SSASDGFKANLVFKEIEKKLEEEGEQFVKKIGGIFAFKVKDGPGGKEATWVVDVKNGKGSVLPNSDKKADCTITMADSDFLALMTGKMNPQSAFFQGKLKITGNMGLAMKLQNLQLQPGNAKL
UniProt O95931, 11-69 limits assumed: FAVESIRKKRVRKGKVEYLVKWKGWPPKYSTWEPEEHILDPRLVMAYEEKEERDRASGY
UniProt P03406, 2-206 limits assumed: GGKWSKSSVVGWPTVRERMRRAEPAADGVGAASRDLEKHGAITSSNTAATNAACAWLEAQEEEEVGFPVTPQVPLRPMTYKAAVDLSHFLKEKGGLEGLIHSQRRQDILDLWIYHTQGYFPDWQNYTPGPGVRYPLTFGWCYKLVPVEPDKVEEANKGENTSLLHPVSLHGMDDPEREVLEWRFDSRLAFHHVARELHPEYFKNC
UniProt P41146, whole entry: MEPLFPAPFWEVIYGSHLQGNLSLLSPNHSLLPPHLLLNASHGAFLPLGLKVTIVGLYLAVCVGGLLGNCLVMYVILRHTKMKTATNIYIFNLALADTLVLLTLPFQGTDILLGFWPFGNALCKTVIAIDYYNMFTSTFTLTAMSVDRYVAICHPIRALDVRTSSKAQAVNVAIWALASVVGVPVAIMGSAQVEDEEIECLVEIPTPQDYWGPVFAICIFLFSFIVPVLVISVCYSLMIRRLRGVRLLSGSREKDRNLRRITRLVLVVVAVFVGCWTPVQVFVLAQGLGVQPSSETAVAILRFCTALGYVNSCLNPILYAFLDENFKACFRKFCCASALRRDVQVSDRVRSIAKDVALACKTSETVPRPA

Compound = O=S1(=O)c2ccc(F)cc2-c2ccc(N3CCN4CCC3CC4)cc21 [fluorine-18 labelled]; target or system = Chrna7 (Mus musculus, UniProt P49582); test system = CD-1 mouse, Chrna7-rich brain regions; setting = 90 min, self-blockade; endpoint = baseline to blockade ratio; value = 5
Compound = O=C(c1ccc(F)cc1F)N1CCN(c2ccc3nncn3n2)CC1; target or system = MAOB; test = enzyme activity, inhibitor, fluorescence; setting = recombinant human enzyme, added: kynuramine 20 µM; endpoint = IC50; value = 83 µM and 83.1 µM
Compound = C=CC1=C(C)C2=Cc3c(C=C)c(C)c4[n]3[Fe]([Cl])[n]3c(c(C)c(CCC(=O)O)c3=CC3=NC(=C4)C(C)=C3CCC(=O)O)=CC1=N2; target or system = Heme-degrading monooxygenase HmoB (Bacillus anthracis, UniProt A0A6H3AGK1); endpoint = Kd; value = 12.6 ± 0.8 µM
Compound = CCC1C(=O)N(C2CCN([C@H]3CC[C@@H]4CCCc5cccc3c54)CC2)c2ccccc21 (relative stereo); target or system = OPRM1 (Homo sapiens, UniProt P35372); test = agonist; test system = cell membranes; endpoint = EC50; value = 0.0569 ± 0.0193 µM
Compound = Cc1ccc2c(c1)-c1c(ssc1=S)C(C)(C)N2C(=O)CC(C)C; target or system = Sterol carrier protein 2 (Homo sapiens, UniProt P22307); test = binding, fluorescence; setting = added: NBD-stearic acid 500 nM; endpoint = Ki; value = 2.9 ± 0.2 µM
Compound = COc1cccc(C(=O)N2CCN(C(=O)COc3cccc(C)c3)CC2)c1OC; target or system = Chromobox protein homolog 7 (Homo sapiens, UniProt O95931); test = H3K27me3 peptide binding, inhibitor, fluorescence anisotropy; endpoint = Ki; value = 43 µM
Compound = C[C@H](NP(=O)(Nc1ccn([C@H]2CS[C@@H](CO)O2)c(=O)n1)N[C@@H](C)C(=O)OCc1ccccc1)C(=O)OCc1ccccc1; target or system = Caco-2; test = cell proliferation; setting = 3 d; endpoint = IC50; value = > 250 µM
Compound = O=C(c1ccc(Cl)cc1)N1CCN(c2ccc3nncn3n2)CC1; target or system = MAOB; test = enzyme activity, inhibitor, fluorescence; setting = recombinant human enzyme, added: kynuramine 20 µM; endpoint = IC50; value = 97 µM
Compound = CC[C@H]1OC(=O)[C@H](C)[C@@H](O)[C@@H](C)C[C@@H](C)C(=O)/C=C/[C@H]1C; target or system = Protein Nef (Human immunodeficiency virus 1, UniProt P03406); test = HLA-A2 downmodulation, inhibitor, flow cytometry; test system = HIV-transduced CD4 T cells, HIV-1; setting = 24 h; scale = up to 1000 nM; endpoint = IC50; value = < 1 µM
Compound = NC12CC3CC(CC(C3)C1)C2; target or system = Influenza A virus; test = viral replication, plaque size reduction; test system = MDCK, A/Swine/Iowa/13-0515/2010 (H3N2); endpoint = EC50; value = < 1 µM
Compound = CO/C=C(/C(=O)OC)c1ccccc1Oc1cc(Oc2ccccc2C#N)ncn1; target or system = N/L (Lymphocytic choriomeningitis virus, UniProt P09992+P14240); test = viral replication, Gaussia luciferase reporter; endpoint = EC50; value = 4.98 µM
Compound = C[C@H](NP(=O)(Nc1ccn([C@H]2CS[C@@H](COP(=O)(N[C@@H](C)C(=O)OCc3ccccc3)N[C@@H](C)C(=O)OCc3ccccc3)O2)c(=O)n1)N[C@@H](C)C(=O)OCc1ccccc1)C(=O)OCc1ccccc1; target or system = COLO 320; test = cell proliferation; setting = 72 h; endpoint = IC50; value = > 250 µM
Compound = O=C1Cc2ccccc2N1C1CCN([C@@H]2CC[C@@H]3CCCc4cccc2c43)CC1; target or system = Nociceptin receptor (OPRL1, Homo sapiens, UniProt P41146); test = agonist; test system = cell membranes; endpoint = EC50; value = 0.0527 ± 0.0046 µM

Repeated from above:
Compound = C=CC1=C(C)C2=Cc3c(C=C)c(C)c4[n]3[Fe]([Cl])[n]3c(c(C)c(CCC(=O)O)c3=CC3=NC(=C4)C(C)=C3CCC(=O)O)=CC1=N2; target or system = Heme-degrading monooxygenase HmoB (Bacillus anthracis, UniProt A0A6H3AGK1); endpoint = Kd; value = 12.6 ± 0.8 µM
Compound = CCC1C(=O)N(C2CCN([C@H]3CC[C@@H]4CCCc5cccc3c54)CC2)c2ccccc21 (relative stereo); target or system = OPRM1 (Homo sapiens, UniProt P35372); test = agonist; test system = cell membranes; endpoint = EC50; value = 0.0569 ± 0.0193 µM
